Results gathered from unrelated publications.
Each line is one published result; not all experiments were run side by side.

SMILES	test	system	setting	endpoint	result
NC(=O)N1c2ccccc2C=Cc2ccccc21	–	male patients	oral, dose not given, on-treatment adverse events	patients with Flatulence	0%
FC(F)(F)c1ccc(CNc2ccc(Cc3c[nH]c4ncc(Cl)cc34)cn2)cn1	–	patients with advanced solid tumours	oral, dose not given, all grades, related to treatment	patients with ALT increase	19%
C=CC[C@@H]1/C=C(\C)C[C@H](C)C[C@H](OC)[C@H]2O[C@@](O)(C(=O)C(=O)N3CCCC[C@H]3C(=O)O[C@H](/C(C)=C/[C@@H]3CC[C@@H](O)[C@H](OC)C3)[C@H](C)[C@@H](O)CC1=O)[C@H](C)C[C@@H]2OC	–	kidney transplant recipients, CYP3A5*3/*3 poor metabolizers, whole blood	oral, dose not given	patients with supratherapeutic C0	23%
COc1ccc([C@@H](O)c2cc(-c3ncnc4cc(N5CCOCC5)ccc34)c(F)cc2Cl)nn1	refers to: Constipation	locally advanced rectal cancer patients	dose not given, all dose groups, with: capecitabine plus radiotherapy	patients with TEAE	21%
COc1cc2nccc(Oc3ccc(NC(=O)c4cc5c(n(-c6ccccc6)c4=O)CCCC5=O)nc3)c2cc1OC	–	patients with relapsed/refractory AML	oral, 6 mg once daily	patients with serious TEAEs	66.7%
C[C@@H](Nc1cc(F)cc(F)c1)c1cc(C(=O)N(C)C)cc2c(=O)cc(N3CCOCC3)oc12	CTCAE v4, refers to: maculopapular rash	patients with advanced solid tumours	oral, dose not given, phase I dose expansion	patients with related SAE	0%
CNC(=O)c1ccc(-c2cnc3ncc(Cc4ccc5ncccc5c4)n3n2)cc1F	refers to: Dyspnea	hepatocellular carcinoma patients	oral, 600 mg twice daily, expansion cohort, grade 3-4	patients with adverse event	0%
Cc1cc(NC2CCN(C(=O)OC3CCN(C(=O)/C=C/CN(C)C)C3)CC2)n2ncc(C(C)C)c2n1 (stereo not shown)	CTCAE v4.0, refers to: Constipation	patients with advanced solid tumours	oral, dose not given, TIW, grade 3 or higher	patients with TEAE	0%
COc1cc(Nc2ncc3c(n2)-c2ccc(Cl)cc2C(c2c(F)cccc2OC)=NC3)ccc1C(=O)O	refers to: increased ALT, grade 2	cancer patients, phase 1/2	oral, dose not given, with: pembrolizumab	patients with adverse event	4%
CNC(=O)c1cc(Oc2ccc(NC(=O)Nc3cc(C(C)(C)C)nn3-c3ccc4ncccc4c3)c(F)c2)ccn1	–	patients	oral, dose not given, cycles 1 and 2, High AUC subgroup	patients with nervous system disorders	67%
C=CC(=O)Nc1cc(Nc2nccc(-c3cn(C)c4ccccc34)n2)c(OC)cc1N(C)CCN(C)C	refers to: treatment-related grade ≥3 Nausea	EGFR-mutant MET-altered NSCLC	oral, dose not given, all	patients with adverse events	3%
Cc1cc(-c2nnc(N)nc2-c2ccc(F)cc2)cc(Cl)n1	refers to: Colitis	IO-naive mCRPC patients, male	oral, dose not given, treatment-related, grade 1	patients with immune-mediated AE	0%
O=C(Nc1nc2cccc(-c3ccc(CN4CCS(=O)(=O)CC4)cc3)n2n1)C1CC1	refers to: bile reflux into stomach	rheumatoid arthritis patients	oral, 200 mg once daily, 4 weeks, any relatedness	patients with adverse event	0%
FC(F)(F)c1ccc(CNc2ccc(Cc3c[nH]c4ncc(Cl)cc34)cn2)cn1	refers to: gastroesophageal reflux disease	patients with TGCT	oral, 1000 mg/day, all grades	patients with treatment-related adverse event	10%
CC(C)C[C@H](NC(=O)[C@@H](Cc1c[nH]c2ccccc12)NC(=O)[C@H](Cc1ccc(O)cc1)NC(=O)[C@H](CO)NC(=O)[C@H](Cc1c[nH]c2ccccc12)NC(=O)[C@H](Cc1c[nH]cn1)NC(=O)[C@@H]1CCC(=O)N1)C(=O)N[C@@H](CCCNC(=N)N)C(=O)N1CCC[C@H]1C(=O)NCC(N)=O	–	Chinese CPP children, girls	intramuscular, 22.5 mg, 12 months, day 1, month 6	patients with TEAEs	88.7%
Cc1ccc(C(=O)N(CCCN)C(c2nc3snc(C)c3c(=O)n2Cc2ccccc2)C(C)C)cc1 (stereo not shown)	–	patients	intravenous, dose not given, all doses	patients with grade ≥3 adverse events	62%
Cc1cc(Nc2ccc(S(F)(F)(F)(F)F)cc2)n2nc(C(C)(F)F)nc2n1	–	Plasmodium vivax malaria patients	oral, 400 mg	patients with eye disorders	0%
C=CCN1CC(=O)N2[C@@H](Cc3ccc(O)cc3F)C(=O)N(Cc3cccc(N4CC(N5CCN(CC)CC5)C4)n3)C[C@@H]2N1C(=O)NCc1ccccc1	–	advanced solid tumour patients	120 mg twice daily, treatment-related, any grade	patients with ALT increased	12.5%
CCOc1c([C@H](C)n2nc(C)c3c(N)ncnc32)cc(Cl)c(F)c1[C@@H]1CNC(=O)C1	refers to: QTcF ≤450 ms	previously treated B-cell malignancy	oral, 10 mg once daily, baseline QTcF ≤450 ms	patients	100%
